Measured values from different studies.
A part holds a random share of what one study measured. Substitutions count along the parent as printed.

Series 1
Target: ABI1, truncated, D143A, DHFR fusion (Arabidopsis thaliana, UniProt P49597)
Technique: DHFR PCA, dose-response
Sample: yeast
Notes: Hill fit, mean, not affinity
With: (+)-ABA, dose series
Reading: lower = more sensitive
Starting sequence: PYL1, truncated, DHFR fusion (Arabidopsis thaliana, UniProt Q8VZS8); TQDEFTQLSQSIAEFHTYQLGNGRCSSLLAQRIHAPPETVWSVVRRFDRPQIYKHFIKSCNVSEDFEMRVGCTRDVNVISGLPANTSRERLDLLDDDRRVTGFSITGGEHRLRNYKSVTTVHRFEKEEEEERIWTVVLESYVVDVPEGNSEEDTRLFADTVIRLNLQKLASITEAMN
Substitution | ABA EC50
E129P | 2.82 µM
S63N | 3.25 µM
G108K | 698 µM
E38H | 9.29 µM
T135V | 85.6 µM
P146E | 492 µM
E147Y | 3.21 µM
C72Y | 18.7 µM
L93H | 9.01 µM
E14W | 49.6 µM
Q10E | 2.73 µM
T73C | 2.78 µM

Series 2
Target: Interferon regulatory factor 3, full length, phosphomimetic (IRF3, Homo sapiens, UniProt Q14653, residues 1-427, S386D/S396D/S398D/S402D/T404D/S405D)
Technique: protein-binding microarray
Form: double-stranded DNA, one strand shown
Sample: in vitro
Concentration: 2540 nM top
Notes: 60-bp whole probe
With: salmon DNA 0.4 mg/ml
Baseline: random background probes
Reading: higher = stronger binding
All sequences stand within: GCCTAGCAC … GTCTTGATTCGCTTGACGCTGCTG
Construct (chain): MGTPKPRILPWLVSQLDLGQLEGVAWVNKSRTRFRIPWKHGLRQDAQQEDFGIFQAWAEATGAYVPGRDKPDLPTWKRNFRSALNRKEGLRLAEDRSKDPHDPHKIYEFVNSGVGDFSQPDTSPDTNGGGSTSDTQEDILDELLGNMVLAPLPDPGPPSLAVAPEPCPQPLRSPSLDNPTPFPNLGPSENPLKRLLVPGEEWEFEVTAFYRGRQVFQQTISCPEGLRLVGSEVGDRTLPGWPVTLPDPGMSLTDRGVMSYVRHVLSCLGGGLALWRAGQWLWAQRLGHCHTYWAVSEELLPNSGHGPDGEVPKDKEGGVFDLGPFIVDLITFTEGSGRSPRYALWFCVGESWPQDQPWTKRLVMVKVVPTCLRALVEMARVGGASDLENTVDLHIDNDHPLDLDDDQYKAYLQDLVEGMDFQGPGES
Strand | fitted relative affinity [z-score]
GACGGACTGTGACTGGGGACGTGCTAG | -0.724
GACTATTTCGGGTTTCGAGACGTGCTA | 2.3
TCAACTCTGCCTCTAACACTGTGCTAG | 0.0359
TTATGTTTCGGGTATCGGTTAGTGCTA | 3.72
GAATTTCCCACTTTCAGTTCGTGCTAG | 3.9
GACGAACTGAGTCTCGACACGTGCTAG | -0.209
TTAGGGCTGGGTTTCGGTTAGTGCTAG | 2.96
TCAACTCTCTACATGTGACTGTGCTAG | 0.355
GACGATATCGGGTTTCGAGAAGTGCTA | 1.01
TTAGATTTCGGGTTTCAATTAGTGCTA | 2.58
GACGATATCAGCATCGAGACGTGCTAG | 0.0367
GACCAACTGGGGTATCGAGACGTGCTA | -0.236
AGCCTGGCCAAGCTCACAGCGTGCTAG | -1.51
GACGGTATCCACACTGGGGACGTGCTA | 1.86
TTAGAACTGAGACTGGATGAGTGCTAG | -0.411
TTAGGTATCGACTTTCAGTTAGTGCTA | 0.962

Series 3
Target: Ras GTPase-activating protein-binding protein 1, full length (G3BP1, Homo sapiens, UniProt Q13283)
Sequence of UniProt Q13283 (whole entry, looked up): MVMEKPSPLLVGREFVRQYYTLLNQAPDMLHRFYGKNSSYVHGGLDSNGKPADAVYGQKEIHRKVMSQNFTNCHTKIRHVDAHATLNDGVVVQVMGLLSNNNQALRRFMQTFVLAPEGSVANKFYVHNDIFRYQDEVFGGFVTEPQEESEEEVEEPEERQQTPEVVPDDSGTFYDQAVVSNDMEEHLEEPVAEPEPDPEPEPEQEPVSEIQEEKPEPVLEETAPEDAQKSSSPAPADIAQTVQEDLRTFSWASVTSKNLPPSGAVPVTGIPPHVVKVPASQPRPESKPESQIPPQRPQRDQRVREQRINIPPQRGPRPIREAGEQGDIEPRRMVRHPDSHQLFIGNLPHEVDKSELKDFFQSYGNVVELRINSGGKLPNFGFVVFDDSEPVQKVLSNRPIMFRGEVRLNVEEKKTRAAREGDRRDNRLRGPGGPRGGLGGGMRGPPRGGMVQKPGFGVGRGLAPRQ
Technique: RNA Bind-n-Seq
Form: RNA
Sample: in vitro
Concentration: 200 nM
Notes: whole 134-nt RNA, ends assumed
With: 150 mM LiCl
Baseline: input library
Reading: higher = stronger binding
Library: 7-deaza-guanosine replaces G
Strand | log2 enrichment
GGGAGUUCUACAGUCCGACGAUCGUCCUGUGCUACACAUCGUAUGUACCGAAUCAAAGUGUGUGUGUGUGUGUGUGUGUAAAAAAGUAUUAUGUUACGCCGUUCGGAUCUGCAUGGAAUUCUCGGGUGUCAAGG | -1.07
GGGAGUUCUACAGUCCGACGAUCCCUGUGCUACACAUCGUAUGUACCGAAUCGGGGUUUUUUUGGGGUGGGGAAAAAAAGGGGAAAGUAUUAUGUUACGCCGUUCGGAUCUGCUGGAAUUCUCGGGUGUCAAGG | 0.18
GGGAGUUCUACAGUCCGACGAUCUUACACCAAUGAGAAGCUGCAGCAGCUCUUCAACCACACCAUGUUCAUCCUGGAGCAGGAGGAGUACCAGCGCGAGGGCAUCGAGUGGAAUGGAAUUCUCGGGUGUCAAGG | 0.41
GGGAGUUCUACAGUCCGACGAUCGUCCUGUGCUACACAUCGUAUGUACCGAAUCAAACCCCCCCAAAUUUAAAUUUUUAAAAAAGUAUUAUGUUACGCCGUUCGGAUCUGCACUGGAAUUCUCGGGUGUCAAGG | 1.12
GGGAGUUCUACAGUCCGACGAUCCACAGACAACACGCACCCACACAGACACAGAGGGAAGGGGUUGGGAUGGGGACAGGUUGCACAGCAGGGCGGGGUAGGACCCCAGCCCCUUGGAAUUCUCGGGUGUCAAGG | -0.374
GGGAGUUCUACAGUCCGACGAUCCCUCAAGUCCUGUGCUACACAUCGUAUGUACCGAAUCGGUGGGGUGGUGGGGAAAGUAUUAUGUUACGCCGUUCGGAUCUGCACUUCCAGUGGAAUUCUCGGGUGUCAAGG | -0.0233
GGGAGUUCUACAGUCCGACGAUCAAGUCCUGUGCUACACAUCGUAUGUACCGAAUCGGGCCCCGGGCCCCGGGCCCCGGAAAGUAUUAUGUUACGCCGUUCGGAUCUGCACUUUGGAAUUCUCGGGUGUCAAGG | -1.36

Series 4
Target: RING finger protein unkempt homolog, zinc fingers 1-6, GST-SBP tag (UNK, Homo sapiens, UniProt Q9C0B0, residues 30-357)
Technique: RNA Bind-n-Seq
Form: RNA
Sample: in vitro
Concentration: not given
Notes: RNA with constant flanks, human and mouse sites, ends assumed
Baseline: input RNA pool
Reading: higher = stronger binding
Residues (chain): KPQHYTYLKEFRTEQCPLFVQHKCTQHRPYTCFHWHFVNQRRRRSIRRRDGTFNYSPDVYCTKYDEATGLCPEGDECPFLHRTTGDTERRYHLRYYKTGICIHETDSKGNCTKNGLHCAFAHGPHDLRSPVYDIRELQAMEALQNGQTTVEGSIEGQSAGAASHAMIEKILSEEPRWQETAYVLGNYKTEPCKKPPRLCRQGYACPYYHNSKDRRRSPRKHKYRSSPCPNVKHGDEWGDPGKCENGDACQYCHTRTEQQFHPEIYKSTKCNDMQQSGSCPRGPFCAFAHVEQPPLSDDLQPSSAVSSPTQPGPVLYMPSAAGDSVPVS
Strand | bound/input enrichment [ratio]
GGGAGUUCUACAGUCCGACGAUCUUGGAUUCAUUAGCAGAAAGCCCUGAGUCUGACUUUAUGUCUGCUGUGAAUGAGUUUGUGAUAGAAGAAAAUUUAUCGUCUCCAAACCCUAUAAGUGAUCCACAAAGUCCAGAAAUGAUGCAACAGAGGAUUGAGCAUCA | 0.13
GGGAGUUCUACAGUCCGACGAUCGAGGAGUCUGGGUUCAGGGAGCCCGUGCUGGAUGCCAAGUCGGAGGUCACGGGCCAGCUUAUAGAUUUUCAGUGGAAACUGGGCAUGGCUGUGAGCUCUGACAGCUGCAGAUCUCUCAAGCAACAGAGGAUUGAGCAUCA | 0.0754
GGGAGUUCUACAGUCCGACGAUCGAAGGAGAGGAAUACUAAAUUAAAUGUCACAAGGUGCUGCUUCCACAGGGAUGUUUAUUGUGUUCCAACACAGAAAGUUGUGGUCUGAUCAGUUAAUUUGUAUGUGGCAAUGUGUGCUUUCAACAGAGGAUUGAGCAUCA | 0.351
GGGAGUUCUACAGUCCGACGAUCGUCCUACAUAGAACGGUCCCUUCAGUUACCAUUCUGAUUGCUCUAUGCUGCUUUCCUCCUCUUAAAGUUUCAUGAGCUCUUGGGUUAAAUGGUUUGUUAUGAGCAGGCUUUCCAUUACUCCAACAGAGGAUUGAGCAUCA | 0.212
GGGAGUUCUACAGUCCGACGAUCAGACUGGCCUACGCUGAAAACAUAGCUCUGUUGGCCGAGACGGCUCUGCGAUUCCUGGAGCUUGUGCAGCUGAAAACUCUCAACAUGGAGAACGAGCCCGAUAACGAGGAGGUAGAUGAACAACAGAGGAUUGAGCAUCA | 0.313
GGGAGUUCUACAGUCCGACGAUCGCUGCAUACAUAGAAAAUGCCAAACAGGUUGGCCGCCUUGAGAAUGCAAUCGGUUGGUAUCAUAGCCACCCUGGUUAUGGCUGCUGGCUCUCCGGGAUUGAUGUUAGUACACAGAUGCUGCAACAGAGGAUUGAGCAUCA | 0.922

Series 5
Target: CCNE1, cyclin fold, Cln2 fusion (human)
Technique: yeast growth competition, sequencing
Sample: yeast
Notes: weak parent motif
Baseline: not given
Reading: higher = stronger binding
Starting sequence: CDC6 docking peptide (human); TLKGRRLVFDNQL
Substitution | normalised enrichment score
TLKGRRLVFDTQL [N11T] | 0.906
TLKGRRKVFDNQL [L7K] | 1.02
TLKGRRLVFINQL [D10I] | 0.714
TLKGRRFVFDNQL [L7F] | -0.0854
TLKGRRLVFDMQL [N11M] | 0.647
TLKGRRLVFDNHL [Q12H] | 0.284
TLKGRRLVGDNQL [F9G] | -0.496
TLWGRRLVFDNQL [K3W] | 0.336
TLKFRRLVFDNQL [G4F] | 0.0551
TLFGRRLVFDNQL [K3F] | 0.425
DLKGRRLVFDNQL [T1D] | -0.175
TLKGRRLVFGNQL [D10G] | -0.559
TLKGRRLHFDNQL [V8H] | 0.289
TLKGRRLVFDNNL [Q12N] | 0.534
TLKGRRLVFDNWL [Q12W] | 1.63
TLKGRRLVFQNQL [D10Q] | 0.681
TLKGRRLVFMNQL [D10M] | 0.931

Series 6
Target: Histone acetyltransferase KAT6A, both winged helices, GST fusion (KAT6A, Homo sapiens, UniProt Q92794, residues 1-181)
Technique: protein binding microarray
Form: double-stranded DNA, one strand shown
Sample: in vitro
Concentration: not given
Notes: 8-mer, flanks averaged, mean of 2 arrays, mostly near background
Baseline: not given
Reading: higher = stronger binding
Target sequence (chain): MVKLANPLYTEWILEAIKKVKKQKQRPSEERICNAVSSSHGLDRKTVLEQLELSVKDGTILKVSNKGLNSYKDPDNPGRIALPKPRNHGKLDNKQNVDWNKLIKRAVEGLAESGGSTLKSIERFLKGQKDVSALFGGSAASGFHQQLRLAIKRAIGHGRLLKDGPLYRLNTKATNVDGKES
Strand | E-score
CGTATCGA | 0.0283
ACTAATAC | 0.0574
AATGGGAT | -0.0785
CCGGCATA | 0.292
CTCCGTGC | 0.162
AATGAGTC | -0.0446
GGCCAACA | -0.0683
CTTTGGAC | 0.0206
GTTCATCA | -0.0362
ATGAAAAG | -0.0854
AGTAATAT | -0.0143
GGCGCTAA | 0.22

Repeated from above (series 2):
Strand | fitted relative affinity [z-score]
AGCCTGGCCAAGCTCACAGCGTGCTAG | -1.51
GACGATATCAGCATCGAGACGTGCTAG | 0.0367
GACTATTTCGGGTTTCGAGACGTGCTA | 2.3
TTAGGTATCGACTTTCAGTTAGTGCTA | 0.962
TTAGAACTGAGACTGGATGAGTGCTAG | -0.411
